Values quoted from earlier work as cited in several papers.
± marks the error that the study gave.
Chain of UniProt Q8IU85 (whole entry, looked up): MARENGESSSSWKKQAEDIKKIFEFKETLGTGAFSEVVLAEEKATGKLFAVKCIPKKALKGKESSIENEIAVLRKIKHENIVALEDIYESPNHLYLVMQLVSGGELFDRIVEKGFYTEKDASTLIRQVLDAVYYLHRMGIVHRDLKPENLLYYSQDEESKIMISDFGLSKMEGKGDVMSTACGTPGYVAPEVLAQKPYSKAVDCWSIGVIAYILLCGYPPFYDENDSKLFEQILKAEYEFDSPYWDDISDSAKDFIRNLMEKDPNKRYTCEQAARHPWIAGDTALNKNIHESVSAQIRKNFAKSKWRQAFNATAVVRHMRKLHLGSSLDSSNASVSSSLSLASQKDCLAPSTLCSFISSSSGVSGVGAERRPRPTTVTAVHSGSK

SMILES	target or system	assay	test system	setting	scale	quantity	value
COc1cc2c(Oc3ccc4[nH]c(C)cc4c3F)ccnc2cc1OCC1(N)CC1	–	–	human, fasted	oral, 5 mg	–	Tmax	9.3 ± 5.1 h
O=C(O)[C@H]1O[C@@H](Oc2ccc([C@@H]3[C@@H](CC[C@H](O)c4ccc(F)cc4)C(=O)N3c3ccc(F)cc3)cc2)[C@H](O)[C@@H](O)[C@@H]1O	–	–	human	dose not given, added: rifampin 18	–	Tmax	~3 h
Cc1ccc([C@@H]2O[C@H](CO)[C@@H](O)[C@H](O)[C@H]2O)cc1Cc1ccc(-c2ccc(F)cc2)s1	–	–	human, preserved kidney function	300 mg, steady state, median	–	tmax	1 h
CCN1CCN(Cc2ccc(Nc3ncc(F)c(-c4cc(F)c5nc(C)n(C(C)C)c5c4)n3)nc2)CC1	–	–	human	100 mg, single dose, tablet	–	Tmax	5.93 h
Cc1ccccc1CN1C(=O)C2=C(CCN(Cc3ccccc3)C2)N2CCN=C12	–	–	human	625 mg once daily, added: rabeprazole 20 mg	–	Tmax	1 h
CC(C)NC(=O)COc1cccc(-c2nc(Nc3ccc4[nH]ncc4c3)c3ccccc3n2)c1	–	–	human	with food	–	tmax delay	0.5 h
CNCc1cc(-c2ccccc2F)n(S(=O)(=O)c2cccnc2)c1	–	–	human	20 mg, single dose	–	Tmax	1.5 h
Cc1cccc(F)c1N1CCC(N2Cc3cn(CC(C)(F)F)nc3N(Cc3ccccc3C(F)(F)F)C2=O)CC1	–	–	human, fasted	–	–	Tmax	1.5 h
Nc1cc(C(F)(F)F)c(-c2nc(N3CCOCC3)nc(N3CCOCC3)n2)cn1	Calcium/calmodulin-dependent protein kinase type 1D (CAMK1D, Homo sapiens, UniProt Q8IU85)	enzyme activity	–	10 µM	baseline: untreated	remaining activity	83%
Cc1cc(C)c(CNC(=O)c2cc(Cl)c3c(c2C)O[C@@](C)([C@H]2CC[C@H](N(C)C)CC2)O3)c(=O)[nH]1	–	–	human, plasma	oral, 50 mg single dose, study, median	–	Tmax	3.5 h

A few entries again:
SMILES	target or system	assay	test system	setting	scale	quantity	value
O=C(O)[C@H]1O[C@@H](Oc2ccc([C@@H]3[C@@H](CC[C@H](O)c4ccc(F)cc4)C(=O)N3c3ccc(F)cc3)cc2)[C@H](O)[C@@H](O)[C@@H]1O	–	–	human	dose not given, added: rifampin 18	–	Tmax	~3 h
